Results from different studies.
Protocols differ between the studies behind these lines. Values joined by “and” are separate records of one study, mostly repeats; a detail may differ. ± marks the error that the study gave. In brackets after ≈: the same amount, converted by molar mass.

`C[N+]1=C2C(c3ccc([N+](=O)[O-])cc3)=[N+]([O-])c3ccccc3N2CCC1` has an MIC90 of 1 µg/mL (Bacteroides fragilis).
`CS(C)(=O)=Nc1ccc(-c2ccc(-c3nc4cc(O[C@@H]5CO[C@H]6[C@@H]5OC[C@H]6O)[nH]c4cc3F)cc2)cc1` has an inhibition of 0% (GABA transporter; binding; 10 µM).
`O=C(O)CN(CC(=O)O)CP(=O)(O)O` gave a meropenem MIC of ≤ 0.25 µg/mL (Klebsiella aerogenes; VIM-1 producer; 32 µg/mL, together with: meropenem).
Under “mRNA fold change”, `FC(F)(F)c1cccc(CNc2nc(NC3CCN(Cc4ccccc4)CC3)c3nc[nH]c3n2)c1` is recorded as 1.01 (Cryptococcus neoformans; RNA-seq, refers to: CNAG_05384; 48 µg/mL, 3 h; relative to: untreated).
The MIC90 of `COc1ccc(-c2[nH]c3ccccc3c2C[C@H]2NC(=O)[C@@H](CO)NC(=O)[C@@H](C(C)C)NC(=O)[C@H](Cc3ccccc3)NC(=O)[C@@H](C(C)C)NC(=O)[C@@H](C)NC(=O)[C@H](CO)NC2=O)c(OC)c1` is reported as 50 µM (Vibrio vulnificus; broth dilution).
`CCc1nn(C)c2nc(-c3ccc(C(=O)O)cc3)nc(NCc3ccccc3)c12` has a parasite number of 56.5% and 62.4% and 60.4% and 41.1% (Cryptosporidium parvum; HCT-8; 3 x EC90, 24 h; relative to: DMSO control).
`CC(C)CS(=O)(=O)N[C@H]1CC[C@H](Nc2ncc3c(N4CCOCC4)n[nH]c3n2)CC1` gave an EC50 of 11.4 ± 3 nM (Leishmania donovani; cell growth; promastigotes, LdBOB; life-cycle stage comparison).
`CCCC/C=C/C(=O)N[C@@H](Cc1csc2ccccc12)C(=O)N[C@H]1COC(=O)[C@@H]2C[C@@H](C)CN2C(=O)[C@H](C)NC(=O)[C@@H]2CCCCN2C(=O)[C@@H]2CCCN2C1=O` gave an RNA release of 0.138 and 0.135 and 0.105 (human coronavirus OC43; Huh-7 CLPP knock-out 2; concentration not given, unit not given; relative to: DMSO).
`CC(C)(C)C(=O)OCOP(=O)(OCOC(=O)C(C)(C)C)C1CCCN(O)C1=O` (centres unmarked) gave a log TGI of -5.28 log M (U-251).
`CCOC(=O)C1(Cc2ccc(OC)cc2)Oc2cc(F)ccc2N(Cc2ccc(OC)cc2)C1=O` (centres unmarked) has an inhibition of 44.3 ± 5.31% (Amaranthus retroflexus; fresh weight, greenhouse postemergence; postemergence, 150 g ai/ha, 21 days).
The MBC of `CC[C@H](C)[C@H](NC(=O)[C@H](CCCCN)NC(=O)[C@H](CCCCN)NC(=O)[C@H](Cc1ccccc1)NC(=O)[C@H](Cc1ccccc1)NC(=O)[C@H](CCCCN)NC(=O)[C@H](CCCCN)NC(=O)[C@H](Cc1ccccc1)NC(=O)[C@H](CCCNC(=N)N)NC(=O)[C@@H](N)CCCCN)C(=O)N[C@@H](CCCCN)C(=O)N[C@@H](CCCCN)C(=O)N[C@@H](CO)C(=O)N[C@H](C(=O)N[C@@H](CCCCN)C(=O)N[C@@H](CCCCN)C(=O)N[C@@H](CCCNC(=N)N)C(=O)N[C@H](C(=O)N[C@@H](CCCCN)C(=O)N[C@@H](CCCCN)C(=O)N[C@@H](CC(C)C)C(=O)N[C@@H](Cc1ccccc1)C(=O)N[C@@H](CCCCN)C(=O)N[C@@H](CCCCN)C(=O)N1CCC[C@H]1C(=O)N[C@@H](CCCNC(=N)N)C(=O)N[C@H](C(=O)N[C@H](C(=O)N1CCC[C@H]1C(=O)N[C@H](C(=O)N[C@@H](CO)C(=O)N[C@H](C(=O)N1CCC[C@H]1C(=O)N[C@@H](Cc1ccccc1)C(=O)O)[C@@H](C)CC)[C@@H](C)CC)[C@@H](C)CC)C(C)C)C(C)C)C(C)C` is reported as 8 µg/mL (≈ 1.9 µM) (Pseudomonas aeruginosa; P3 clinical isolate; 20 h).
`CC(C)[C@H]1NC(=O)[C@H](Cc2ccccc2)NC(=O)[C@@H](C(C)C)NC(=O)[C@@H](C)NC(=O)[C@H](C)NC(=O)[C@@H](Cc2c(-c3ccc(-c4ccc(-c5ccccc5)cc4)cc3)[nH]c3ccccc23)NC(=O)[C@@H](CO)NC1=O` has an MIC90 of > 50 µM (Vibrio vulnificus; broth dilution).
The MIC50 of `[O-][N+]1=C(Cc2ccccc2)C2=NCCCN2c2ccccc21` is reported as 1 µg/mL (≈ 3.43 µM) (Bacteroides fragilis; microbial growth).
For `CC[C@H](C)[C@H](NC(=O)[C@H](CO)NC(=O)[C@H](Cc1ccc(O)cc1)NC(=O)[C@H](Cc1ccc(O)cc1)NC(=O)[C@H](CC(N)=O)NC(=O)CNC(=O)[C@H](CO)NC(=O)[C@H](Cc1ccc(O)cc1)NC(=O)[C@H](CO)NC(=O)[C@H](CO)NC(=O)[C@H](CC(N)=O)NC(=O)COCCOCCNC(=O)CN1CCN(CC(=O)O)CCN(CC(=O)O)CCN(CC(=O)O)CC1)C(=O)N[C@@H](CC(C)C)C(N)=O` [copper-64 labelled], the tumour uptake was 9.16 %ID/mL (dynamic PET; KPC mouse, pancreatic cancer model, tumor; intravenous, 0.4 min, 49 days after tamoxifen).
For `CC(C)[C@H]1NC(=O)[C@H](Cc2ccccc2)NC(=O)[C@@H](C(C)C)NC(=O)[C@@H](C)NC(=O)[C@H](C)NC(=O)[C@@H](Cc2c(-c3ccc(-c4ccc5ccccc5c4)cc3)[nH]c3ccccc23)NC(=O)[C@@H](CO)NC1=O`, the MIC90 was > 50 µM (Vibrio vulnificus; broth dilution).
`C#CCCCC(=O)N[C@H]1CCOC1=O` gave an inhibition of 45 ± 2% (Escherichia coli; LuxR reporter, antagonist; DH5α sensor strain; 100 µM, together with: OHHL 200 nM).
`C[N+]1=C2C(c3ccc(Cl)cc3)=[N+]([O-])c3ccccc3N2CCC1` gave an MIC90 of 8 µg/mL (Bacteroides fragilis).
For `CC[C@H](C)CCCCC(=O)N[C@@H](CCN)C(=O)N[C@H](C(=O)N[C@@H](CCN)C(=O)N[C@H]1CCNC(=O)[C@H]([C@@H](C)O)NC(=O)[C@H](CCN)NC(=O)[C@H](CCN)NC(=O)[C@H](CC(C)C)NC(=O)[C@@H](CC(C)C)NC(=O)[C@H](CCN)NC1=O)[C@@H](C)O`, “MIC fold change” read 1.42 (Escherichia coli; daily serial passaging; ATCC 8739; highest sub-MIC, 37 days; relative to: initial MIC).
`CC[C@H](C)[C@H](NC(=O)[C@H](CC(N)=O)NC(=O)[C@H](CC(C)C)NC(=O)[C@@H](NC(=O)[C@@H](N)Cc1ccccc1)[C@@H](C)CC)C(=O)N[C@@H](CC(C)C)C(=O)N[C@@H](CC(=O)O)C(=O)N[C@@H](CCCCN)C(N)=O`: “geometric mean MIC” 256 µM (all tested microorganisms).
With `CCC1(CC)CC(=O)N(C2c3cc(C(=O)NC4c5ccccc5CC4O)ccc3OC2(C)COC)C(=N)N1` (centres unmarked) the EC50 was 0.4 ± 0.2 nM (Plasmodium falciparum; parasite growth; W2Mef).
`CCN(CC)CCO.O=C(O)C(Cl)Cl` has an inhibition of 46% (Amaranthus retroflexus; herbicidal activity; 15 mg/mL, 21 days, post-emergence greenhouse).
The inhibition of `CCOC(=O)C1(Cc2cc(F)cc(F)c2)Oc2cc(F)ccc2N(Cc2cc(F)cc(F)c2)C1=O` (centres unmarked) is reported as 45.6 ± 3.37% (Amaranthus retroflexus; fresh weight, greenhouse postemergence; postemergence, 150 g ai/ha, 21 days).
`C[C@@H]1NC(=O)[C@H](C)NC(=O)[C@@H](NC(=O)[C@@H]2CCCN2C(=O)[C@H](CC(N)=O)NC(=O)[C@H](Cc2ccc(O)cc2)NC(=O)[C@@H](N)CCCCN)CSC(=O)[C@H](Cc2ccccc2)NC(=O)[C@H](Cc2ccc(O)cc2)NC1=O` gave a biofilm dispersal of 11% (Staphylococcus epidermidis; safranin staining; RP62A; 10 µM, 37 °C; relative to: DMSO control).
With `Cc1cc(C(=O)Nc2nc3cccc(C)c3n2[C@H]2CCCCN(C(=O)/C=C/CN(C)C)C2)ccn1` the survival was 69.8% and 72.2% and 77.3% and 73.1% (Trypanosoma brucei brucei; 2T1 CLK1 overexpressing; 5 µM, compound pretreated; relative to: maximum).
`O=C1NC2(CC2)COc2ncc(F)cc2[C@H]2COCCN2c2ccn3ncc1c3n2` has a total cholesterol of 1.57 ± 0.43 mmol/L (Sprague-Dawley rat, female, serum; oral, 20 mg/kg/day, 4 weeks daily, end of treatment).
Under “normalized viral replication”, `COc1ccc(Cn2c3cc(=O)n(Cc4cccc(Cl)n4)c(C)c3c(=O)n2-c2ccccn2)cc1` is recorded as 0 (human respiratory syncytial virus; recombinant reporter virus; concentration not given, scale 0 to 100, together with: adenosine 0.13 µM).
`COc1ccc(C2=[N+]([O-])c3ccccc3N3CCN=C23)cc1` has an MIC90 of ≤ 0.06 µg/mL (Bacteroides fragilis).
Under “fresh weight inhibition”, `C#CCN1C(=O)C(CC#C)(C(=O)OCC)Oc2ccccc21` (centres unmarked) is recorded as > 75% (Amaranthus retroflexus; greenhouse; postemergence, 150 g ai/ha, 21 days).
For `CN(C(=O)c1ccn2ncc(-c3ccc(C(N)=O)cc3)c2c1)c1ccc(C#N)cn1`, “faecal Nluc luminescence” read 137 a.u. and 55 a.u. and 320 a.u. and 2740 a.u. and 206 a.u. (Cryptosporidium parvum; UGA1 Nluc, IFN-gamma knockout C57BL/6 mice, faeces; oral, 10 mg/kg daily, 384 h post infection, treatment days 11-17; higher means more parasites).
With `COc1ccccc1-c1ccncc1C(=O)Nc1nnc(OCc2ccc(Cl)cc2)s1` the colony survival was 96.7% (DLD-1 parental (BRCA2 WT); 0.06 µM, average of 3 runs; relative to: untreated).
`CN(C)S(=O)(=O)c1ccc(S(=O)(=O)N2CCC(n3c(=O)[nH]c4ccccc43)CC2)cc1` has a rifampicin concentration of 15.6 µg/mL (Escherichia coli; Keio wild type; concentration not given, 48 h).
The inhibition of `CCOC(=O)C1(Cc2ccc(F)cc2)Oc2cc(F)ccc2N(Cc2ccc(F)cc2)C1=O` (centres unmarked) is reported as 50.5 ± 2.11% (Amaranthus retroflexus; fresh weight, greenhouse postemergence; postemergence, 150 g ai/ha, 21 days).
`CCN(CC)CC#CCNc1ccnc2cc(Cl)ccc12` has a resistance index of 1.3 (Plasmodium falciparum; parasite growth, LDH; Dd2; relative to: IC50 Dd2 over IC50 3D7).
`CC1COC2=C1C(=O)C(=O)c1c2ccc2c1C(OC(=O)CNC(=O)C(N)CCC(=O)O)CCC2(C)C` (mixture of isomers) — result for “inhibition zone diameter”: 24.8 ± 1 mm (Staphylococcus epidermidis; 10 µmol/mL, 48 h, 10 µL on 6 mm disc).
The IC50 of `Cc1cc(Oc2nc(N3CC[C@@H](c4ccncc4)C3)ncc2F)[nH]n1` is reported as 32400 nM (MDA-MB-468; cell growth or viability).

Some of these lines once more:
`CC[C@H](C)[C@H](NC(=O)[C@H](CC(N)=O)NC(=O)[C@H](CC(C)C)NC(=O)[C@@H](NC(=O)[C@@H](N)Cc1ccccc1)[C@@H](C)CC)C(=O)N[C@@H](CC(C)C)C(=O)N[C@@H](CC(=O)O)C(=O)N[C@@H](CCCCN)C(N)=O`: “geometric mean MIC” 256 µM (all tested microorganisms).
The IC50 of `Cc1cc(Oc2nc(N3CC[C@@H](c4ccncc4)C3)ncc2F)[nH]n1` is reported as 32400 nM (MDA-MB-468; cell growth or viability).
`CC(C)(C)C(=O)OCOP(=O)(OCOC(=O)C(C)(C)C)C1CCCN(O)C1=O` (centres unmarked) gave a log TGI of -5.28 log M (U-251).
`COc1ccc(C2=[N+]([O-])c3ccccc3N3CCN=C23)cc1` has an MIC90 of ≤ 0.06 µg/mL (Bacteroides fragilis).
`CCc1nn(C)c2nc(-c3ccc(C(=O)O)cc3)nc(NCc3ccccc3)c12` has a parasite number of 56.5% and 62.4% and 60.4% and 41.1% (Cryptosporidium parvum; HCT-8; 3 x EC90, 24 h; relative to: DMSO control).
